Published values pooled from the literature.
Each numbered part is a random draw from the data of one study; scales do not carry over between parts. Substitutions count along the parent as printed.

Sample 1
Target: CCND1, cyclin fold, Cln2 fusion (human)
Technique: yeast growth competition, sequencing
Sample: yeast
Notes: strong parent motif
Baseline: not given
Direction: higher = stronger binding
Parent: SCAPER docking peptide (human); SNARRSLNFGGST; partner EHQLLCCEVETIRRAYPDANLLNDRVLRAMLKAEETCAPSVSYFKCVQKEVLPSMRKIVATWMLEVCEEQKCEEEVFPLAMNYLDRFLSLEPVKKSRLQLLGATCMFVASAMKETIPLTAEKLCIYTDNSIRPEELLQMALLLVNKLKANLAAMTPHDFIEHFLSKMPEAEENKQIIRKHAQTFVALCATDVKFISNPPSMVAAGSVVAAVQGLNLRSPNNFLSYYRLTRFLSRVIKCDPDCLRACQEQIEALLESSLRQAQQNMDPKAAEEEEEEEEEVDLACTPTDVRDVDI
`SNARRSLNFGDST [G11D]` — result for “normalised enrichment score”: 1.67.
`SNARNSLNFGGST [R5N]`: “normalised enrichment score” 0.119.
For `SNARRSLNFHGST [G10H]`, “normalised enrichment score” read 0.275.
For `NNARRSLNFGGST [S1N]`, “normalised enrichment score” read 0.591.
Under “normalised enrichment score”, `SNLRRSLNFGGST [A3L]` is recorded as -0.314.
`SNFRRSLNFGGST [A3F]` — result for “normalised enrichment score”: 0.296.
For `SNARRSINFGGST [L7I]`, “normalised enrichment score” read 0.153.
For `SNARASANFGGST [R5A L7A]`, “normalised enrichment score” read -0.0227.
`SNARRSLNFGGCT [S12C]` — result for “normalised enrichment score”: 1.09.
`SNARRSLCFGGST [N8C]` — result for “normalised enrichment score”: 0.471.
Under “normalised enrichment score”, `DNARRSLNFGGST [S1D]` is recorded as 0.814.
`SNARRYLNFGGST [S6Y]` — result for “normalised enrichment score”: 1.03.

Sample 2
Target: Ras GTPase-activating protein-binding protein 1, full length (G3BP1, Homo sapiens, UniProt Q13283)
UniProt Q13283, sequence (whole entry, looked up): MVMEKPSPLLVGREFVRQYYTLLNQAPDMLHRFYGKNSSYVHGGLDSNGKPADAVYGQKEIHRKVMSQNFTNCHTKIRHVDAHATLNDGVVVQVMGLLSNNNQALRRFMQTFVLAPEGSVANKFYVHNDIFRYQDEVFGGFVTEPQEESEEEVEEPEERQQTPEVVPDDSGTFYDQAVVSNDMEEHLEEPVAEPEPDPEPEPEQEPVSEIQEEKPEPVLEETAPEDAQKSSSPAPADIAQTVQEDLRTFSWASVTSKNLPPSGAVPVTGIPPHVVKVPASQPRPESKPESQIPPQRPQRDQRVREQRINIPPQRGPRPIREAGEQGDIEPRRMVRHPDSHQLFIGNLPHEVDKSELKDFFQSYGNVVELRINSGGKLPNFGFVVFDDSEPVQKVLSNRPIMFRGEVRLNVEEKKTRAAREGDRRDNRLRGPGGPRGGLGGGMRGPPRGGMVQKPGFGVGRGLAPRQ
Technique: RNA Bind-n-Seq
Form: RNA
Sample: in vitro
Tested at: 200 nM
Notes: whole 134-nt RNA, ends assumed
Added: 150 mM LiCl
Baseline: input library
Direction: higher = stronger binding
Library: 7-deaza-guanosine replaces G
For `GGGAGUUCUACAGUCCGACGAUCUGGCCCUGGUGGCAUGCGGGGAGGAAGAGGUGGCCUCAUGGAUCGUGGUGGUUCCGGUGGAAUGUUCAGAGGUGGCCGUGGUGGAGACAGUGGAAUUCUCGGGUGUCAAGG`, the log2 enrichment was 0.497.
For `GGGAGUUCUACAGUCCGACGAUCUCCUGUGCUACACAUCGUAUGUACCGAAUCAAACCCCCCCAAAUUUUUUUAAACCCAAAAAAGUAUUAUGUUACGCCGUUCGGAUCUGCAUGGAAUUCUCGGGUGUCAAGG`, the log2 enrichment was 1.53.
`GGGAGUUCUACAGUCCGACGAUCGCAGGAAGUAAAAACAAAUGGAAAUGCUUCGGAUAGUGGCAGGGGUGGGGGUUGCUAAGGAAAGGGUGGGAUGGGAGUGGUUAAAGAGUUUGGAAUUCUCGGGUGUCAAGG` has a log2 enrichment of 0.279.
For `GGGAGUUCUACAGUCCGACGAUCUCCUCAAGUCCUGUGCUACACAUCGUAUGUACCGAAUCGGUUUGGUGGAGGAAAGUAUUAUGUUACGCCGUUCGGAUCUGCACUUCCAGCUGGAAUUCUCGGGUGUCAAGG`, the log2 enrichment was -0.662.
`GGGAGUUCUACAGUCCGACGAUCACCAUGCAGGUGGGCAUCUUUGGGAAAUGGGGCAAGGGGGGGAUAGGGAGGGGGGUAACACUUUGGGAACAGGUGGUCCCAGGUCGUUUCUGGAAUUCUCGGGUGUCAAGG` has a log2 enrichment of 0.223.
`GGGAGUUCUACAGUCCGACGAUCAAGUCCUGUGCUACACAUCGUAUGUACCGAAUCGGGGUGGGGAAAAAGGGGUGGGGAAAGUAUUAUGUUACGCCGUUCGGAUCUGCACUUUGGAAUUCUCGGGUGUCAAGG` gave a log2 enrichment of 0.367.
`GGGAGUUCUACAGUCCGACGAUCUGGCCCUGGUGGCAUGCGGGGAGGAAGAGGUGGCCUCAUGGAUCGUGGUGGUCCCGGUGGUAUGUUCAGAGGUGGCCGUGGUGGAGACAGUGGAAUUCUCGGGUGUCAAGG` gave a log2 enrichment of -0.117.
With `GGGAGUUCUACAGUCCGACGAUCUGGGAGGUGGAUUUUGUUUAUUUUUUUAGCUCAUAUCCAGGGGUGGGAAUUUUUUUUUAAUAUGUGUCAUGAAUAAAGUUGUUUUUGAAAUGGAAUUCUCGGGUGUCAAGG` the log2 enrichment was 0.236.
With `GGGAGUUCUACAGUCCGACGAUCCCUGUGCUACACAUCGUAUGUACCGAAUCGGGGUUUUUUGGGGUUUUUUGGUUUUUUGGGGAAAGUAUUAUGUUACGCCGUUCGGAUCUGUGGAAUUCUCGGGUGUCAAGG` the log2 enrichment was 0.633.
For `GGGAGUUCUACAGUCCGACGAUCCACAGACAACACGCACCAACACAGACACAGAGGGAAGGGGUUGGGAUGGGGACAGGGUGCACAGCAGGGCGGGGUAGGACCCCAGCCCCUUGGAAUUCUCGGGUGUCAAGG`, the log2 enrichment was 0.166.
For `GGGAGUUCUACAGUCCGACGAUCACUGAUGAGAGCCUGAGGAGCCAUUUUGAGCAAUGGGGAACGCUCACGGACUGUGUGGUAAGAUUUGGAAGGGACAAAGCAGUAAAACAGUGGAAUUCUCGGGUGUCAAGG`, the log2 enrichment was 0.321.

Sample 3
Target: ABI1, truncated, D143A, DHFR fusion (Arabidopsis thaliana, UniProt P49597)
Technique: DHFR PCA, dose-response
Sample: yeast
Notes: Hill fit, mean, not affinity
Added: (+)-ABA, dose series
Direction: lower = more sensitive
Parent: PYL1, truncated, DHFR fusion (Arabidopsis thaliana, UniProt Q8VZS8); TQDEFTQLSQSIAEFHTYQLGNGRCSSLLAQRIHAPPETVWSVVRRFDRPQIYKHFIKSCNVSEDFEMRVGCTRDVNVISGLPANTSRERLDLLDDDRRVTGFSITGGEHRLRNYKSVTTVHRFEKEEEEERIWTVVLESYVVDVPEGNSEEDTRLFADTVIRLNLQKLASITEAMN
With `E38V` the ABA EC50 was 66.9 µM.
`T6S` has an ABA EC50 of 2.51 µM.
With `E174P` the ABA EC50 was 69.3 µM.
With `L29Q` the ABA EC50 was 20.5 µM.
`Q31T` gave an ABA EC50 of 23.9 µM.
With `D75K` the ABA EC50 was 1.84 µM.
For `G21F`, the ABA EC50 was 8.18 µM.
The ABA EC50 of `E109F` is reported as 62.5 µM.
`D96S` has an ABA EC50 of 110 µM.

Single results of other studies
`PhoQ, residues 284 288 289 292 302 303 NLMGRA` gave a fold induction of 18.9 (PhoP, residues 12 14 15 18 19 HEGLL (Escherichia coli, UniProt P23836); Sort-seq, refers to: YFP reporter; E. coli; PhoQ-PhoP variant library, added: 10 µM Mg2+; baseline: high Mg2+ state, higher = stronger signaling).

Some of these lines once more (sample 2):
For `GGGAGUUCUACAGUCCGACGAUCUCCUCAAGUCCUGUGCUACACAUCGUAUGUACCGAAUCGGUUUGGUGGAGGAAAGUAUUAUGUUACGCCGUUCGGAUCUGCACUUCCAGCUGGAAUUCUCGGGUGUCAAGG`, the log2 enrichment was -0.662.
`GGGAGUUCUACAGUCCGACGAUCACCAUGCAGGUGGGCAUCUUUGGGAAAUGGGGCAAGGGGGGGAUAGGGAGGGGGGUAACACUUUGGGAACAGGUGGUCCCAGGUCGUUUCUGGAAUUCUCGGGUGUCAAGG` has a log2 enrichment of 0.223.
`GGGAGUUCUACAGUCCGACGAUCAAGUCCUGUGCUACACAUCGUAUGUACCGAAUCGGGGUGGGGAAAAAGGGGUGGGGAAAGUAUUAUGUUACGCCGUUCGGAUCUGCACUUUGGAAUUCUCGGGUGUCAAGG` gave a log2 enrichment of 0.367.
`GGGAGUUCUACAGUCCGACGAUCUGGCCCUGGUGGCAUGCGGGGAGGAAGAGGUGGCCUCAUGGAUCGUGGUGGUCCCGGUGGUAUGUUCAGAGGUGGCCGUGGUGGAGACAGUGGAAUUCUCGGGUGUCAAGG` gave a log2 enrichment of -0.117.
With `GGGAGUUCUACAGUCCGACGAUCUGGGAGGUGGAUUUUGUUUAUUUUUUUAGCUCAUAUCCAGGGGUGGGAAUUUUUUUUUAAUAUGUGUCAUGAAUAAAGUUGUUUUUGAAAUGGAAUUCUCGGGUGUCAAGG` the log2 enrichment was 0.236.
